Measured values collected from several papers.
Every numbered part comes from another study and shows a few of its results, in no order.

Block 1 — method: RNAcompete; form: RNA; sample: in vitro; tested at: 20 nM; notes: 7-mer, probes averaged, single round; baseline: mean of 7-mers; direction: higher = stronger binding
Target: PABPC1L2, full length, GST fusion (mouse, UniProt A0ABA7IW68)
Construct (chain): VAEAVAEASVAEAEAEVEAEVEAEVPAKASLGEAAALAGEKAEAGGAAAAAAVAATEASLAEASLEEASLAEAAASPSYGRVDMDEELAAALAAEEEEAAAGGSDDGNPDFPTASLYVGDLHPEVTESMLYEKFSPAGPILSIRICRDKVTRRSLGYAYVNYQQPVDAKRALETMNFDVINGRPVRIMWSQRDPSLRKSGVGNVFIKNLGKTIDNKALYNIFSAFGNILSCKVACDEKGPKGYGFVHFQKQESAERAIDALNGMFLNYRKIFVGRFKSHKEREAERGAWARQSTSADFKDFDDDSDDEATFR
Oligonucleotide | 7-mer Z-score
UAUGAGU | -0.267
CACUGAU | -0.269
UUCCGAU | -0.266
CCUCAAG | -0.302
GAAACAA | 2.53
UUAGCUG | -0.184
GUGCUAC | -0.121
UUGGUUG | -0.251
GUUGCAA | -0.124
UGAAACA | 0.512
CGAGAAC | -0.137
CGGGUCA | 0.133
UGAUGAA | -0.0863
UAAGUGU | -0.235
GGAUACA | 0.312
CACAAGU | -0.161
GGGGCUC | 0.233
ACAACUU | -0.132
AGUUAAC | -0.135
AUAGUUC | -0.246
AGACGCU | -0.273
GCAUAUU | -0.0917

Block 2 — method: protein binding microarray; form: double-stranded DNA, one strand shown; sample: in vitro; tested at: not given; baseline: not given; direction: higher = stronger binding
Target: Histone acetyltransferase KAT6A, both winged helices, GST fusion (KAT6A, Homo sapiens, UniProt Q92794, residues 1-181)
Notes: 8-mer, flanks averaged, mean of 2 arrays, mostly near background
Residues (chain): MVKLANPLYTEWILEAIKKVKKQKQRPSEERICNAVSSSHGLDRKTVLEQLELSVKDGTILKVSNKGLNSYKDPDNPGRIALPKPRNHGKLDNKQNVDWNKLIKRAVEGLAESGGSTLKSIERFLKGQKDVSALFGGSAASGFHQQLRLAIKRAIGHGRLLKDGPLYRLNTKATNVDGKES
Oligonucleotide | E-score
AAGTCGGG | 0.0381
AAAGTTAT | -0.0156
AAGCGACG | 0.224
CGTCGTAC | 0.153
CCCTTCCC | -0.0517
CAAGCTCA | -0.113
CGGAAGTC | 0.283
CTGCGCTC | 0.139
CACTGCGC | 0.285
CTATAGAA | -0.0466
AGGTACAC | -0.103
CCCCCGAA | -0.0713
CAAGTAAG | -0.165
CACCTTCC | -0.0775
CCTCTCGC | -0.0323
AGCCCGCA | 0.0807
AGAACGTG | 0.0622
TCAAAAAA | -0.0704
ACATTTCA | -0.118
AAAACTAA | -0.0929
AACCATCA | -0.0477
AGAACGAG | -0.148
GACTCTCA | -0.0693
AACCTATG | -0.0876
AATTTGCC | 0.0457

Block 3 — method: RNA Bind-n-Seq; form: RNA; sample: in vitro; tested at: 365 nM; baseline: no-protein control; direction: higher = stronger binding
Target: RNA binding protein fox-1 homolog 2, RRM domain, GST-SBP tag (RBFOX2, Homo sapiens, UniProt O43251-10, residues 100-194)
Notes: natural RNA segment, single round, ends assumed
All sequences stand within: GGGAGUUCUACAGUCCGACGAUC … UGGAAUUCUCGGGUGCCAA
Construct (chain): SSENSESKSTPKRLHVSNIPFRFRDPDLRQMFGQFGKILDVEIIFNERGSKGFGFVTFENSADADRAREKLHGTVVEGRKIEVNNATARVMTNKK
Oligonucleotide | RBNS enrichment (R)
GUUCUGGACCCCAUUUUUGAUAGGCUUUUUUGUCUUGUCCUCUACUCAUGCUGUCUUGGACUCACUGACCCAGCUGCAGGGUUUUGUUACCCUGCCAGUCCCCUGCCUCA | 0.765
UUGAUUUAUUUUACACCUCUGCUUAGGCCUCCUGCCUGGAGAUGAGCCAUGCUGUUGUGAGAUUUUUAGCUGCUGGAAGGCUAGGUAAUCACUGGGUAGUAUCACACAGG | 0.534
CUCUUGCCCCUUGGCAUGUACCCCAAGGCCUGAUGGCCACUGGGCUCAGCCUGUCCCCCACUCCUGCCUGCUUCCCGGUGAGCUGCCCCCCACACGUGCAGCCCGGGCUG | 1.19
CCAUCUCUACCUUCCCUGGCCAGUCCUCUGACGGUUCACAAGGGCCAGAGAUAUGGACUUUAUUUUUGUUCCCAGGACUGAUGUAGCUUAGUGGCAAGUGUCUCCCUGGC | 0.512
AGCCGCCCUGGCUAGAGGCCUGCAGUGGAUGAGCGCAAAGUGCCCGGCCACAGCCCCCUCCCUUUAGGCUAAAAUUCUCACCCAAGCUUUCCCACGGGAAGCUCUAGGAC | 0.28
UAUUUUUUUUUACCUCUAUCAGGGUUUUUAUUUGAAAGUGUGCUCUUACCAUUUCCUUGUUUGAGUAAGAGAGUGAAUGGUUCUGAGUGUUUAGGAAGGAUUUGCUUGCU | 2.3
AUUGCCAGGAAUGUUUCAGCUGCAGUUGAAGAGCCUGACAAGUGAAGUUGUAAACACAGUGUGGUUAUGGGGAGAGGGCAUAUAAAUUCCCCAUAUUUGUGUUCAGUUCC | 0.343
CUCCAAGGCUCUGCACCAUGCCACACACUUGCUGUAAGGCUAGAAGUGAAGACCUUAUUAAUAGGAGCAUAAUUGCGAGGGAGAAUCAUGGUUCUGCAGUCUGGUGUAGA | 0.269
AGUGCUCCCAAGAGCAGCUCCUACGUGGUGCUGCCCGACACCAGCACAUGAGGGGCCGCUCUUCUGUCCUGUGGAGCUCCUGCCCUGCCAGCUCUCCAUGCUGAGCUGUG | 3
UUAUCAUAGUCUUUUUCUUUCAUUGAGUUUUCAUUUAGACUAGCAUGGCAAGCAGGGUGGCCUUGGACUUUGAUUUAGGGGAUCGUGCUUUGGCCUGGAAAAUAAGCACU | 1.32
UAUCCCAUGUUCCCAGAAAGCUGUGUACUAGUUAAAAACUCUUUUGUCAAGGGGUAGGGAUAGUGGAGAGGCAGAGGAUGGAAUCAGAAUUAUCUGGGCAUUUCCUUAUU | 0.32
UCGAGCUGUCUUUUAACUUUUGUAUGUGUUUUAUCAGAAUUUGCUGGACUAUGCUGGCAAGGACUUUGUUUACGAUCAAAUUGUACUAGUGUCUGCAGGGUUUGUCAGUA | 0.791

Block 4 — method: universal PBM; form: double-stranded DNA, one strand shown; sample: in vitro; tested at: 600 nM; direction: higher = stronger binding
Target: Sal-like protein 4, full length isoform A (SALL4, Homo sapiens, UniProt Q9UJQ4, residues 1-1053)
Sequence of UniProt Q9UJQ4 (whole entry, looked up): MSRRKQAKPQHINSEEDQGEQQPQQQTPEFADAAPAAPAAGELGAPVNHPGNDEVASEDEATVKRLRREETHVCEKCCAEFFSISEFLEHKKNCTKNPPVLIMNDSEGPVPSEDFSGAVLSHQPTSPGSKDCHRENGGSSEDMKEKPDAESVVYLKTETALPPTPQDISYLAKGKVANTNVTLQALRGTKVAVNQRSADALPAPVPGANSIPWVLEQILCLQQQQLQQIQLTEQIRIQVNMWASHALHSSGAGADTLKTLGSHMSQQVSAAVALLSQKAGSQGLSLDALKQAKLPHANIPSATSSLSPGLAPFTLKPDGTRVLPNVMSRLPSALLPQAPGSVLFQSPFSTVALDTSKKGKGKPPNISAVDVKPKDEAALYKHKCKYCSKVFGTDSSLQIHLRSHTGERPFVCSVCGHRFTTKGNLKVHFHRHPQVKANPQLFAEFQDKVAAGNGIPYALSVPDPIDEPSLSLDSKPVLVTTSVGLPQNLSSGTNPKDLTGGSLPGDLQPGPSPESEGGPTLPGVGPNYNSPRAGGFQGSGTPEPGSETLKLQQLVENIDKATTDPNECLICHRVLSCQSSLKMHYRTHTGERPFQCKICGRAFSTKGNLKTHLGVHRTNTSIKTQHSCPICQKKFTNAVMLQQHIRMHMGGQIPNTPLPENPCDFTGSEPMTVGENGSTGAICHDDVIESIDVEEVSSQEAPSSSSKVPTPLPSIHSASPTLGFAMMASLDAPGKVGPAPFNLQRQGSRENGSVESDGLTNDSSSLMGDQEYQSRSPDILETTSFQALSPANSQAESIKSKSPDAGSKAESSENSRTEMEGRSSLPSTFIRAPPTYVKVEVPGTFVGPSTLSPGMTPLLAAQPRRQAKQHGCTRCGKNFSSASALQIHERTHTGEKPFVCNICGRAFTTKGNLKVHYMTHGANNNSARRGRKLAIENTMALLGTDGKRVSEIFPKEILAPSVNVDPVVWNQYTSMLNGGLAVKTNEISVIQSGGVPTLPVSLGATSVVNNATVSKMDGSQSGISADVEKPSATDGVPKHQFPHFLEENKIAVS
Notes: 8-mer, flanks averaged, mean of replicates
Oligonucleotide | E-score
AGTTTAAA | 0.212
TACTTATA | 0.329
ACTCGCAA | 0.139
GAAGCTAA | 0.0179
GCGCTGTA | -0.0557
TATGAGGA | 0.223
ATAGCATG | 0.0535
CCTGGGCA | -0.271
GCGTAGAC | -0.132
TGTAGACA | 0.155
CACCGAAG | -0.0626
GGCCAGTA | -0.0821
ACGAAGGG | -0.196
CAGGATCC | -0.189
CATATCAA | 0.354
AGCGGAAA | -0.0183
GGCAATAC | 0.0456
CATCGGCA | -0.108
AACGTGCC | -0.256
GCACGGTA | -0.0938
CTGAGCGA | -0.155

Repeated from above (block 2):
Oligonucleotide | E-score
CCCCCGAA | -0.0713
CAAGTAAG | -0.165
CACCTTCC | -0.0775
CCTCTCGC | -0.0323
AGCCCGCA | 0.0807
AGAACGTG | 0.0622
TCAAAAAA | -0.0704
